{"data": "Assay results gathered from unrelated publications", "EGFR": "Epidermal growth factor receptor (EGFR, Homo sapiens, UniProt P00533)", "EGFR G719S": "Epidermal growth factor receptor (EGFR, Homo sapiens, UniProt P00533, G719S)", "EGFR del752-759": "Epidermal growth factor receptor (EGFR, Homo sapiens, UniProt P00533, del752-759)", "note": "Compare with care: the assays were run in different laboratories."}
{"SMILES": "CNC(=O)C1CCN(c2cc(C)c(F)cc2NC(=O)c2ccc(-c3cc(O)ccc3C)c(C)c2)CC1", "target": "Epidermal growth factor receptor (EGFR, Homo sapiens, UniProt P00533, A750P/del747-749)", "assay": "binding, competition with immobilised ligand", "setting": "1 µM", "remaining binding [%]": 18}
{"SMILES": "C=CC(=O)N1CCCC(n2c(=O)c3ncccc3n(Cc3ccc(Oc4ccccc4)cc3)c2=O)C1 (stereo not shown)", "target": "EGFR", "assay": "cell-free assay, competition with immobilised ligand", "setting": "1 µM", "remaining binding [%]": 88}
{"SMILES": "Nc1ncc2c(n1)-c1c([nH]c3ccc(C4=CCOCC4)cc13)CCC2", "target": "EGFR G719S", "assay": "binding, competition with immobilised ligand", "setting": "1 µM", "remaining binding [%]": 85}
{"SMILES": "CCN1CCN(Cc2ccc(NC(=O)c3ccc(C)c(NC(=O)c4cncc(-c5cccs5)c4)c3)cc2C(F)(F)F)CC1", "target": "EGFR del752-759", "assay": "binding, competition with immobilised ligand", "setting": "1 µM", "remaining binding [%]": 0}
{"SMILES": "C=CC(=O)N1CCc2ccc(-n3c(=O)ccc4cnc5ccc(-c6cnn(C)c6)cc5c43)cc21", "target": "EGFR", "assay": "KINOMEscan", "setting": "1 µM", "how to read": "relative to: DMSO control", "remaining binding [%]": 100}
{"SMILES": "COc1c(Cl)cccc1Nc1c(-c2ccncc2C#C[C@@]2(C)CCCN2C(=O)/C=C/CN(C)C)[nH]c2c1C(=O)NCC2", "target": "EGFR G719S", "assay": "cell-free assay, competition with immobilised ligand", "setting": "3 µM", "remaining binding [%]": 0}
{"SMILES": "CCN1CCN(Cc2ccc(C(=O)Nc3ccc(C)c(NCc4cnc5[nH]ccc5c4OC)c3)cc2C(F)(F)F)CC1", "target": "EGFR del752-759", "assay": "binding, competition with immobilised ligand", "setting": "1 µM", "remaining binding [%]": 2}
{"SMILES": "CNC1C[S+]2CC[S+]3CC[S+](C1)[Ru-4]321([N]=C=S)[n]2c3ccc(OC)cc3c3c4c(c5cc(F)c[n+]1c5c32)C(=O)NC4=O (stereo not shown)", "target": "Epidermal growth factor receptor (EGFR, Homo sapiens, UniProt P00533, T790M)", "assay": "KinomeScan", "setting": "0.1 µM", "how to read": "relative to: untreated", "remaining binding [%]": 100}
{"SMILES": "Cc1ccc(-c2c(/C=C(\\C#N)C(=O)NC(C)C)n(CCCO)c3ncnc(N)c23)cc1", "target": "EGFR G719S", "assay": "cell-free assay, competition with immobilised ligand", "setting": "1 µM", "remaining binding [%]": 100}
{"SMILES": "CC(C)=CC1OC(C)(C)C2C=C3C(=O)C(Cl)=CC(O)C3C3C(O)C4OC4C(=O)C132 (stereo not shown)", "target": "EGFR del752-759", "assay": "cell-free assay, competition with immobilised ligand", "setting": "10 µM", "remaining binding [%]": 74}
